Measurements collected from several papers.
Lines come from different studies, so protocols differ. Several values in a cell are separate wells, animals, samples, runs or records.
SRC: Proto-oncogene tyrosine-protein kinase Src (SRC, Homo sapiens, UniProt P12931)
TDP1: Tyrosyl-DNA phosphodiesterase 1 (TDP1, Homo sapiens, UniProt Q9NUW8)
Chain of UniProt Q9NUW8 (whole entry, looked up): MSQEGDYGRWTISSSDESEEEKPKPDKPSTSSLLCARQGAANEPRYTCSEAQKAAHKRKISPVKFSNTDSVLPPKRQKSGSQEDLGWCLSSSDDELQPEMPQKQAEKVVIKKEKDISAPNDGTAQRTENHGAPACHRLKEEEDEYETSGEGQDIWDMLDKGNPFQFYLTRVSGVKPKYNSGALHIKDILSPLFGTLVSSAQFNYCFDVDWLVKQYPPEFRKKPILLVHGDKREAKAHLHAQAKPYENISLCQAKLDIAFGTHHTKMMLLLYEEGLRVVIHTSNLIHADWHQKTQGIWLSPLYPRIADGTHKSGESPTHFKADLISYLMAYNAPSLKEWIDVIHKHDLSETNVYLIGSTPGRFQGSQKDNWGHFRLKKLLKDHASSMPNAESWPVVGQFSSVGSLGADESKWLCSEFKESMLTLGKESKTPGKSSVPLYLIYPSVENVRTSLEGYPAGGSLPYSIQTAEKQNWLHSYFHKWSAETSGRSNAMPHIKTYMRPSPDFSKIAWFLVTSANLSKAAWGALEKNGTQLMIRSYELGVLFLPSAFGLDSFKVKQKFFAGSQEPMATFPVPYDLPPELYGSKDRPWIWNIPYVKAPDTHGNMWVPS

| Structure (SMILES) | target | assay | system | setting | scale | endpoint | value |
| --- | --- | --- | --- | --- | --- | --- | --- |
| Nc1nc(Nc2ccccc2)sc1C(=O)c1ccccc1 | SRC | enzyme activity, inhibitor |  | 10 µM |  | remaining activity | 42% |
| CN1CCN(c2ccc(Nc3ncc(Cl)c(Nc4ccccc4P(C)(C)=O)n3)cc2Br)CC1 | SRC | enzyme activity, inhibitor |  | 0.1 µM |  | inhibition | 71.7% |
| COc1cc(OC)c(F)c(/C=C/c2cnc3ccn(S(=O)(=O)c4cn(CCF)cn4)c3n2)c1F | SRC |  |  | 1000 nM |  | inhibition | 2.4% |
| COc1ccc(O)cc1-c1c[nH]c2ncc(-c3cncc(C(=O)N(C)C)c3)cc12 | SRC | binding, competition with immobilised ligand |  | 0.2 µM |  | inhibition | -6.9% |
| CN1CCN(Cc2ccc(NC(=O)c3cccc(C#Cc4cnc(N)c5ncccc45)c3)cc2C(F)(F)F)CC1 | SRC | cell-free assay, competition with immobilised ligand |  | 50 nM |  | remaining binding | 5.8% |
| COc1cc(Nc2nccc(-c3cnn4nc(OC)ccc34)n2)cc(C(F)(F)F)c1 | SRC | binding, competition with immobilised ligand |  | 1 µM |  | remaining binding | 100% |
| COC(=O)c1nn(C)c(Cl)c1C=NOCc1ccc2nc(-c3ccccc3)c(Nc3ccc(C(=O)O)cc3)n2c1 (mixture of isomers) | TDP1 | enzyme activity, inhibitor |  | 100 µM, unpurified compound |  | inhibition | 54.6% |
| CC(C)=CC1OC(C)(C)C2C=C3C(=O)C(Cl)=CC(O)C3C3C(O)C4OC4C(=O)C132 (stereo not shown) | SRC | cell-free assay, competition with immobilised ligand |  | 10 µM |  | remaining binding | 91% |
| COCC12C(=O)NC3C4(C(OC)CC1O)C1CC5(O)C(OC)C(O)C(OC(C)=O)(C1C5OC(=O)c1ccccc1)C3(O)C(OC)C24 (stereo not shown) | SRC | kinase activity, inhibitor, ProQinase kinase profiling |  | 25 µM | reference: control | remaining activity | 111% and 105% |
| COc1cc(-n2cc3cc(F)cc(C(N)=O)c3n2)cc(Cl)c1C1CC(O)(CCO)Cc2ccccc21 (stereo not shown) | SRC | enzyme activity, inhibitor |  | 10 µM |  | inhibition | 0.25% |
| COc1ccc(NC(=O)Nc2ccc3c(c2)C(=O)N(C(C)CO)CC(C)C(CN(C)Cc2ccc4c(c2)OCO4)O3)cc1 (stereo not shown) | SRC | kinase activity |  | 0.03 µM, residues 1-530 | reference: control | remaining activity | 97% |
| CC(C=NOCc1ccc2nc(-c3ccccc3)c(Nc3ccc(C(=O)O)cc3)n2c1)=Cc1cccc([N+](=O)[O-])c1O | TDP1 | enzyme activity, inhibitor |  | 100 µM, unpurified compound |  | inhibition | 76.7% |
| Cc1cnc2nc1Nc1cccc(c1)COC/C=C/COCc1cc(ccc1OCCN1CCOCC1)N2 | SRC | binding, competition with immobilised ligand |  | 0.1 µM |  | remaining binding | 33% |
| CNC(=O)C1CCN(c2cc(C)c(F)cc2NC(=O)c2ccc(-c3cc(O)ccc3C)c(C)c2)CC1 | SRC | binding, competition with immobilised ligand |  | 1 µM |  | remaining binding | 0.1% |
| Cc1cccc(-c2ccc3nc(NC(=O)C4CCCO4)nn3c2)c1 (stereo not shown) | SRC | enzyme activity, Dundee kinase panel |  | 10 µM |  | remaining activity | 98% |
| CNS(=O)(=O)Nc1nccc(Cc2c(C)c3ccc(Oc4ncccc4F)cc3oc2=O)c1F | SRC | binding, competition with immobilised ligand |  | 10 µM |  | remaining binding | 93% |
| CCN1CCN(Cc2ccc(C(=O)Nc3ccc(C)c(NCc4cnc5[nH]ccc5c4OC)c3)cc2C(F)(F)F)CC1 | SRC | binding, competition with immobilised ligand |  | 1 µM |  | remaining binding | 0.3% |
| C=CC(=O)Nc1cccc(-c2cnc3[nH]cc(C(=O)NC(C)(C)C)c3n2)c1 | SRC | kinase activity |  | 0.1 µM |  | inhibition | 12% |
| C=CC(=O)N1Cc2nc(-c3cc(-c4cc(Cl)cnc4Cl)c(F)cc3F)n(-c3ccncn3)c2C1 | SRC | cell-free assay, inhibitor |  | 1 µM |  | inhibition | -4.7% |
| O=C(Nc1ccc(Oc2ncnc3[nH]cc(-c4ccccc4)c23)c(F)c1)c1c2n(n(-c3cc(F)ccc3F)c1=O)CCCC2 | SRC | enzyme activity, inhibitor |  | 0.5 µM |  | inhibition | 47% |
| O=C=[N][Ru-4]123([n]4c5ccc(O)cc5c5c6c(c7cc(F)c[n+]1c7c54)C(=O)NC6=O)[S+]1CC[S+]2CC[S+]3CC1 (stereo not shown) | Proto-oncogene tyrosine-protein kinase Src (SRC, Homo sapiens, UniProt P12931, T341M) | enzyme activity |  | 100 nM, human enzyme, added: 10 µM ATP | reference: untreated | remaining activity | 94% |
| COc1c(OCCCN2CCOCC2)ccc2c1N=C(NC(=O)c1cnc(N)nc1)N1CCN=C21 | SRC | kinase activity, inhibitor |  | 1 µM | reference: untreated control | remaining activity | 125% |
| Cc1cccc(O[C@H]2CCC[C@@H](C(C)CNCc3ccncc3)C2)c1 (relative stereo) | SRC | enzyme activity, inhibitor |  | 10 µM |  | inhibition | -10% |
| Nc1ncc(-c2cc(-c3cnn(CC(F)(F)F)c3)ncc2F)nc1C(=O)NC1CNCC(F)C1 (stereo not shown) | SRC | enzyme activity |  | 1 µM | reference: DMSO control | remaining activity | 77.5% |
| CCn1cc(C(=O)O)c(=O)c2c(N)c(F)c(NC3CCCCC3)cc21 | SRC | kinase activity |  | 0.1 µM, added: ATP at Km |  | inhibition | -1.1% |
| Cc1ccc(C)c(-c2ccc3nc(NC(=O)C4CCCCC4)nn3c2)c1 | SRC | enzyme activity, Dundee kinase panel |  | 10 µM |  | remaining activity | 89% |
| NC(=O)[C@@H](O)C[C@H]1CCc2sc3ncnc(O[C@H]4CC[C@H](N5CCOCC5)CC4)c3c21 | SRC | enzyme activity, inhibitor |  | 10 µM |  | inhibition | 64% |
| Cc1ccc(C(=O)Nc2ccc(CN3CCN(C)CC3)c(C(F)(F)F)c2)cc1C#Cc1cnc2cccnn12 | SRC | target engagement, NanoBRET | human cells |  |  | upper asymptote | 12.5 |

A few entries again:
| Structure (SMILES) | target | assay | system | setting | scale | endpoint | value |
| --- | --- | --- | --- | --- | --- | --- | --- |
| COc1c(OCCCN2CCOCC2)ccc2c1N=C(NC(=O)c1cnc(N)nc1)N1CCN=C21 | SRC | kinase activity, inhibitor |  | 1 µM | reference: untreated control | remaining activity | 125% |
| Cc1cccc(O[C@H]2CCC[C@@H](C(C)CNCc3ccncc3)C2)c1 (relative stereo) | SRC | enzyme activity, inhibitor |  | 10 µM |  | inhibition | -10% |
| Nc1ncc(-c2cc(-c3cnn(CC(F)(F)F)c3)ncc2F)nc1C(=O)NC1CNCC(F)C1 (stereo not shown) | SRC | enzyme activity |  | 1 µM | reference: DMSO control | remaining activity | 77.5% |
| CCn1cc(C(=O)O)c(=O)c2c(N)c(F)c(NC3CCCCC3)cc21 | SRC | kinase activity |  | 0.1 µM, added: ATP at Km |  | inhibition | -1.1% |
| Cc1ccc(C)c(-c2ccc3nc(NC(=O)C4CCCCC4)nn3c2)c1 | SRC | enzyme activity, Dundee kinase panel |  | 10 µM |  | remaining activity | 89% |
